Values quoted from earlier work, collected from citations in different studies.
“And” joins repeats or separate records; there may be more than shown. ± marks the error that the study gave.

For O=C(CCCCCCC(=O)Nc1ccccc1)NO, the Cmax was 430 to 2980 nM (human, plasma; oral, 400 mg once daily, with food).
For Cc1c(C)c2c(c(C)c1O)CCC(C)(COc1ccc(CC3SC(=O)NC3=O)cc1)O2 (stereo not shown), the Cmax was 3000 nM (human, plasma; oral, 400 mg single dose).
CNCCCC12CCC(c3ccccc31)c1ccccc12 has a Cmax of 230 nM (human; concentration not given).
The Cmax of CC1(C)C=Cc2c(ccc3c2OC[C@@H](c2ccc(O)cc2O)C3)O1 is reported as ≤ 8 nM (human, plasma; oral, single dose, licorice supplement 1% compound).
With CC1(C)S[C@@H]2[C@H](NC(=O)[C@H](N)c3ccc(O)cc3)C(=O)N2[C@H]1C(=O)O the Cmax was 159000 nM (human, plasma; concentration not given, highest clinical total).
With Cc1ccc(/C=C2/C(=O)C3(C)CCC2C3(C)C)cc1 (stereo not shown) the Cmax was 51.9 ng/mL (human, male, plasma; dermal, 22 mg/kg, sunscreen 4% compound; geometric mean).
The Cmax of C1=C/COCc2cc(ccc2OCCN2CCCC2)Nc2nccc(n2)-c2cccc(c2)COC/1 is reported as 22500 nM (human patients, plasma; dose not given).
O=C1CC(c2ccc(O)cc2)Oc2cc(O)cc(O)c21 (stereo not shown) gave a Cmax of 2000 ± 770 ng/mL (refers to: total incl. conjugates; human, plasma; oral, 135 mg).
With CCOc1cc2ncc(C#N)c(Nc3ccc(OCc4ccccn4)c(Cl)c3)c2cc1NC(=O)/C=C/CN(C)C the Cmax was 146 nM (human patients, plasma; dose not given).
With COc1ccc2[nH]c([S+]([O-])Cc3ncc(C)c(OC)c3C)nc2c1 (stereo not shown) the Cmax was 4150 nM (human, plasma; highest proposed clinical dose).
CN[C@H]1CC[C@@H](c2ccc(Cl)c(Cl)c2)c2ccccc21 gave a Cmax of 86 ng/mL and 86.1 ng/mL (human; 200 mg/day).
The Cmax of CN1CCN(c2ccc3nc(-c4c(N)c5c(F)cccc5[nH]c4=O)[nH]c3c2)CC1 is reported as 180 to 487 ng/mL (human; oral, 500 mg, 5 days on 2 days off, day 1, 24 h).
CC(=O)Oc1cccc2c1C(=O)c1c(OC(C)=O)cc(C(=O)O)cc1C2=O has a Cmax of 13000 nM (human, plasma; concentration not given, total concentration).
The Cmax of COc1cccc(CCc2ccccc2OCC(CN(C)C)OC(=O)CCC(=O)O)c1 (racemic) is reported as 1820 ng/mL (human; oral, 400 mg single dose as hydrochloride, geometric mean).
With O=C(Nc1nc2cccc(-c3ccc(CN4CCS(=O)(=O)CC4)cc3)n2n1)C1CC1 the Cmax was 5100 nM (human, rheumatoid arthritis patients, plasma; 200 mg once daily, steady state).
O=C1Cc2cc(CCN3CCN(c4nsc5ccccc45)CC3)c(Cl)cc2N1 has a Cmax of 228 nM (human, plasma; concentration not given, highest clinical total).
With NC(=O)N1c2ccccc2CC(=O)c2ccccc21 the Cmax was 8440 nM (human, plasma; 600 mg twice daily).
The Cmax of CCc1ccc(CCOc2ccc(CC3SC(=O)NC3=O)cc2)nc1 (stereo not shown) is reported as 4500 nM (human, plasma; oral, 45 mg single dose).
The Cmax of CC/C(=C(\c1ccccc1)c1ccc(OCCN(C)C)cc1)c1ccccc1 is reported as 493 nM (human, plasma; concentration not given, highest clinical total).
With CO[C@H]1C[C@@H]2CC[C@@H](C)[C@@](O)(O2)C(=O)C(=O)N2CCCC[C@H]2C(=O)O[C@H]([C@H](C)C[C@@H]2CC[C@@H](OC(=O)C(C)(CO)CO)[C@H](OC)C2)CC(=O)[C@H](C)/C=C(\C)[C@@H](O)[C@@H](OC)C(=O)[C@H](C)C[C@H](C)/C=C/C=C/C=C/1C the Cmax was 595 ± 102 ng/mL (human; intravenous, 25 mg once weekly, day 7 or 28).
For NCCN[C@H]1CC[C@H](CC(=O)N[C@H]2Cc3cccc(C(=O)O)c3OB2O)CC1, the Cmax was 26500 ng/mL (human, plasma; intravenous infusion, 500 mg over 2 h every 8 h, after 10 days, without cefepime).
C#Cc1cccc(Nc2ncnc3cc(OCCOC)c(OCCOC)cc23)c1 has a Cmax of 2530 ± 1190 ng/mL (human; oral, 150 mg once daily, day 28, 24 h).
CC[C@H](C)C(=O)O[C@H]1C[C@@H](C)C=C2C=C[C@H](C)[C@H](CC[C@@H]3C[C@@H](O)CC(=O)O3)[C@H]21 gave a Cmax of ~50 nM (human, plasma; 40 mg daily).
Cc1cc(-c2ccc(C(=O)[C@@H]3CCCC[C@H]3C(=O)Nc3cnn4c3C(=O)NCC4)cc2)n[nH]1 gave a Cmax of 3210 nM (human, non-Japanese; oral, 360 mg multiple doses, day 10, geometric mean).
For COc1cccc(CCc2ccccc2OC[C@H](O)CN(C)C)c1 (racemic), the Cmax was 47.6 ng/mL (human; oral, 100 mg sarpogrelate hydrochloride, single dose, geometric mean).
For O=C(CCCN1CCC(O)(c2ccc(Cl)cc2)CC1)c1ccc(F)cc1, the Cmax was 27 nM (human, plasma; concentration not given, total concentration).
Cn1c(=O)c2c(ncn2C)n(C)c1=O has a Cmax of 52000 nM (human, plasma; oral, 315 to 530 mg/day).
C[C@]12C=CC(=O)C=C1CC[C@H]1[C@@H]3C[C@@H](O)[C@](O)(C(=O)CO)[C@@]3(C)C[C@H](O)[C@@]12F has a Cmax of 27 nM (human, plasma; concentration not given, total concentration).
For COc1cc(CCC(=O)O)ccc1O, the Cmax was 385 nM (healthy human, plasma; oral, 412 µmol chlorogenic acids in coffee, 200 mL coffee).
The Cmax of CC(=O)[C@]1(O)Cc2c(O)c3c(c(O)c2[C@@H](O[C@H]2C[C@H](N)[C@H](O)[C@H](C)O2)C1)C(=O)c1ccccc1C3=O is reported as 88 nM (human, plasma; concentration not given, total concentration).
COc1cc(Nc2ncc3c(n2)-c2ccc(Cl)cc2C(c2c(F)cccc2OC)=NC3)ccc1C(=O)O gave a Cmax of 2900 nM (human adults; oral, 50 mg enteric-coated tablet).
For CCCCC[C@H](O)/C=C/[C@@H]1[C@H]2C/C(=C/CCCC(=O)O)O[C@H]2C[C@H]1O, the Cmax was 0.99 nM (human, plasma; concentration not given, total plasma concentration).
CC(C)NCC(O)c1ccc(NS(C)(=O)=O)cc1 (racemic) has a Cmax of 18400 nM (human, plasma; concentration not given, highest clinical total).
CNC(=O)c1ccccc1Sc1ccc2c(/C=C/c3ccccn3)n[nH]c2c1 has a Cmax of 56 nM (human, plasma; concentration not given, total concentration).
For CC(=O)Oc1ccccc1C(=O)O, the Cmax was 111000 nM (human, plasma; concentration not given, highest clinical total).
C=CC[C@@H]1/C=C(\C)C[C@H](C)C[C@H](OC)[C@H]2O[C@@](O)(C(=O)C(=O)N3CCCC[C@H]3C(=O)O[C@H](/C(C)=C/[C@@H]3CC[C@@H](O)[C@H](OC)C3)[C@H](C)[C@@H](O)CC1=O)[C@H](C)C[C@@H]2OC has a Cmax of 83 nM (human, plasma; concentration not given, total concentration).
For O=C1Nc2ccc(Cl)cc2[C@@](C#CC2CC2)(C(F)(F)F)O1, the Cmax was 9200 to 16600 nM (human, plasma; 600 mg once daily, steady state).

For quick reference, copied from above:
For NCCN[C@H]1CC[C@H](CC(=O)N[C@H]2Cc3cccc(C(=O)O)c3OB2O)CC1, the Cmax was 26500 ng/mL (human, plasma; intravenous infusion, 500 mg over 2 h every 8 h, after 10 days, without cefepime).
C#Cc1cccc(Nc2ncnc3cc(OCCOC)c(OCCOC)cc23)c1 has a Cmax of 2530 ± 1190 ng/mL (human; oral, 150 mg once daily, day 28, 24 h).
For O=C(CCCN1CCC(O)(c2ccc(Cl)cc2)CC1)c1ccc(F)cc1, the Cmax was 27 nM (human, plasma; concentration not given, total concentration).
CC(C)NCC(O)c1ccc(NS(C)(=O)=O)cc1 (racemic) has a Cmax of 18400 nM (human, plasma; concentration not given, highest clinical total).
C=CC[C@@H]1/C=C(\C)C[C@H](C)C[C@H](OC)[C@H]2O[C@@](O)(C(=O)C(=O)N3CCCC[C@H]3C(=O)O[C@H](/C(C)=C/[C@@H]3CC[C@@H](O)[C@H](OC)C3)[C@H](C)[C@@H](O)CC1=O)[C@H](C)C[C@@H]2OC has a Cmax of 83 nM (human, plasma; concentration not given, total concentration).
